Experimental data pooled from the literature.
Compare with care: the assays were run in different laboratories.
FGFR3 isoform IIIc: FGFR3 isoform IIIc (unknown, UniProt Q61851)
Chain of UniProt Q61851 (whole entry, looked up): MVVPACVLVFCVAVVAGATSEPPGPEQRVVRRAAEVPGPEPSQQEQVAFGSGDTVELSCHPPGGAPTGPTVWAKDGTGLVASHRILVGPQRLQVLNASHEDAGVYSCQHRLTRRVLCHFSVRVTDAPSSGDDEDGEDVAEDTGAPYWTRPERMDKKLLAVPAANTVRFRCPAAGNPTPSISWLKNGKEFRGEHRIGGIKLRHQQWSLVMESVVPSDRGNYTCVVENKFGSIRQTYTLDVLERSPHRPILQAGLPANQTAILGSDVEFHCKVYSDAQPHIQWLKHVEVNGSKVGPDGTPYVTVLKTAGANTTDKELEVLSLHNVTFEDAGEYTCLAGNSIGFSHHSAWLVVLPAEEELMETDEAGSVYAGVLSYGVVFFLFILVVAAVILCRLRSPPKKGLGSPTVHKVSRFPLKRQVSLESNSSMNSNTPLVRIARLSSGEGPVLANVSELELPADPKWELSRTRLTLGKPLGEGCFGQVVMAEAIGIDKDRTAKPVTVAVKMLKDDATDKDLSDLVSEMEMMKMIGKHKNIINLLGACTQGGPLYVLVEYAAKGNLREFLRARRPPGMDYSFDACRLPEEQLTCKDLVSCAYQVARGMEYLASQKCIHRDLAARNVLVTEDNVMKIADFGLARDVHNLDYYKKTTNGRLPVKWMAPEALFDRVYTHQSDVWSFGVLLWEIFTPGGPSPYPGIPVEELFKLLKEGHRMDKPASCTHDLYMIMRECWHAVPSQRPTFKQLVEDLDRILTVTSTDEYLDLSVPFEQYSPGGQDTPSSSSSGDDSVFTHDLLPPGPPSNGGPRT
acpP C12-acylated: acpP C12-acylated 1-78, C12 acyl on 4'-phosphopantetheine (Escherichia coli, UniProt P0A6A8)
Chain of UniProt P0A6A8 (whole entry, looked up): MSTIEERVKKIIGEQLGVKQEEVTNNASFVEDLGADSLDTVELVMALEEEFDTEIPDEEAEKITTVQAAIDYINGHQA
T1: HSP90AA1 723-732 C-terminal peptide E to K, N-terminal 5-carboxyfluorescein (Homo sapiens); DDTSRMEKVD
T2: PDHA1/PDHB 30-390 E229A on β (Homo sapiens); chain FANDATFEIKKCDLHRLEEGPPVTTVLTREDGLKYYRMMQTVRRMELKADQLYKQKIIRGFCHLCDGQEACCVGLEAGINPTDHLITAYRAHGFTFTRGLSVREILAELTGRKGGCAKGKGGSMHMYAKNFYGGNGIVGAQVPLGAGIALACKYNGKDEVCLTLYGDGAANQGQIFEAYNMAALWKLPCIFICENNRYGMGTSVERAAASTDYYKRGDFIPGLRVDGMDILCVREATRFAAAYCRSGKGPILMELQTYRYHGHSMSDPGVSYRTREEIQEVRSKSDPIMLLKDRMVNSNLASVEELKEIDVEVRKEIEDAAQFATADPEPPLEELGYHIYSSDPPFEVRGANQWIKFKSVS; chain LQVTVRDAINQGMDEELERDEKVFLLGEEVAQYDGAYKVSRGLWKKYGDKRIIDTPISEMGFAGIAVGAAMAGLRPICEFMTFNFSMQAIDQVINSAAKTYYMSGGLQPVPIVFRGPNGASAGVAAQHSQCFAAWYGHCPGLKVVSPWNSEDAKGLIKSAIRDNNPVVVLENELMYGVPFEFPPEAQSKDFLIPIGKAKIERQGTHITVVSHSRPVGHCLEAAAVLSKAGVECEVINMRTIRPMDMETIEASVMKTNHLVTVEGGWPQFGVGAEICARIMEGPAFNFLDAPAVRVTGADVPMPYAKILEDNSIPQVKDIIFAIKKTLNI
B1: DLAT 214-416 (Homo sapiens, UniProt P10515); sequence looked up; chain SYPPHMQVLLPALSPTMTMGTVQRWEKKVGEKLSEGDLLAEIETDKATIGFEVQEEGYLAKILVPEGTRDVPLGTPLCIIVEKEADISAFADYRPTEVTDLKPQVPPPTPPPVAAVPPTPQPLAPTPSAPCPATPAGPKGRVFVSPLAKKLAVEKGIDLTQVKGTGPDGRITKKDIDSFVPSKVAPAPAAVVPPTGPGMAPVP
B2: RGS16 (Homo sapiens, UniProt O15492); sequence looked up; chain MCRTLAAFPTTCLERAKEFKTRLGIFLHKSELGCDTGSTGKFEWGSKHSKENRNFSEDVLGWRESFDLLLSSKNGVAAFHAFLKTEFSEENLEFWLACEEFKKIRSATKLASRAHQIFEEFICSEAPKEVNIDHETHELTRMNLQTATATCFDAAQGKTRTLMEKDSYPRFLKSPAYRDLAAQASAASATLSSCSLDEPSHT
B3: mel-26 (Caenorhabditis elegans, UniProt Q94420); sequence looked up; chain MEPRIDGGVFIGGIGNSGNEMCSNGVPALGVSSQTEIKVEKVQHTWTVKNFSHCYQEYLENFVYLQRGDEQLTWSIKIYPKGNGENNKDFVFLCLNRVINNNVKAGKIGFKSQFKLRTAENKDIEMRIHPNPSHSDYVSYIKRDVLFPQIMPRDMIIVNVEIDVAVETITTTNEPIQFEPTNSEQQLIEDYQRLFSQELLCDFAINVNGKIIRAHKAVLAARSPVFNAMLTHQDTDEAKSSMMYINDMDYDVIYEMVYYIYCGRCNKDITDMATALLIAADKYRLEELKSHCEKYLVENINIENACSLLIIGDLYSAPKLRKRAVTYILARPKNVTGTPGWEDILKGHPNLITDIFSQIDRQSSTGATSSVSNLPGVPMDIPGITGNIVPPPSGL
B4: TIMP3 24-144 (Homo sapiens, UniProt P35625); sequence looked up; chain CTCSPSHPQDAFCNSDIVIRAKVVGKKLVKEGPFGTLVYTIKQMKMYRGFTKMPHVQYIHTEASESLCGLKLEVNKYQYLLTGRVYDGKMYTGLCNFVERWDQLTLSQRKGLNYRYHLGCN
Chain of UniProt P70618 (whole entry, unmodified, looked up): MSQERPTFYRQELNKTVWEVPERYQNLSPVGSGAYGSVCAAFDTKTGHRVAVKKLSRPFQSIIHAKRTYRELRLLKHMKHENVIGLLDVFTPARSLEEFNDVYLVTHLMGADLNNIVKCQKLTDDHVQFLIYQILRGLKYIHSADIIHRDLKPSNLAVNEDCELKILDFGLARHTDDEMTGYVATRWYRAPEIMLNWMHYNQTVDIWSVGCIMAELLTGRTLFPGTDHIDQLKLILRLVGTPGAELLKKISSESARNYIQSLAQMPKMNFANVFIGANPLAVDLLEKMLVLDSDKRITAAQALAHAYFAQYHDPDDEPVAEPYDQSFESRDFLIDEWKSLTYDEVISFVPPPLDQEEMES
Chain of UniProt P08253 (whole entry, unmodified, looked up): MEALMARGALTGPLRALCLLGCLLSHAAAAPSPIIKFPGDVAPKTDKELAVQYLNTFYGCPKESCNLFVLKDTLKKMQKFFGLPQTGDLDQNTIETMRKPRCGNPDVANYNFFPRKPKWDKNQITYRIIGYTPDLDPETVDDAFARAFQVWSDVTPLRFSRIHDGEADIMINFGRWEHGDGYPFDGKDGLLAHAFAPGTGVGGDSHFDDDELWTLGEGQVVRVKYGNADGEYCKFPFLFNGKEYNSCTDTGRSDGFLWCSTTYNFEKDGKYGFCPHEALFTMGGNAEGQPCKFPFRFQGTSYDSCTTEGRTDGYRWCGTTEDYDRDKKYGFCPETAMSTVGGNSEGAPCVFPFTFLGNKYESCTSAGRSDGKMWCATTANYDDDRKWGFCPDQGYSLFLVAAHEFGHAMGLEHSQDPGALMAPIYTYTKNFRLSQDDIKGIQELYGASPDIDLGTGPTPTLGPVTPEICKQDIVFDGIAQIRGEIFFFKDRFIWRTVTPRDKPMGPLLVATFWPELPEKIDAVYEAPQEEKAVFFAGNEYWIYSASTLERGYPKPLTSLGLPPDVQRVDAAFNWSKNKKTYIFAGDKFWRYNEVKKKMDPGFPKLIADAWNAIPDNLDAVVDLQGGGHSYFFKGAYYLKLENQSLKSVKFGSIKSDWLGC
Chain of UniProt P55075 (whole entry, looked up): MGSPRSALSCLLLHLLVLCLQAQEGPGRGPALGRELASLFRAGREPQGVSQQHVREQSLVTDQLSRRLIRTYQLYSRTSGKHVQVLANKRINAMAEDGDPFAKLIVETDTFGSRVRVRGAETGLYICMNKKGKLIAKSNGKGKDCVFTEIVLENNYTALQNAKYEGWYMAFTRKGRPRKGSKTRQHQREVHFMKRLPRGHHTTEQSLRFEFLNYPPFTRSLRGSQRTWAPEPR
Chain of UniProt Q12798 (whole entry, looked up): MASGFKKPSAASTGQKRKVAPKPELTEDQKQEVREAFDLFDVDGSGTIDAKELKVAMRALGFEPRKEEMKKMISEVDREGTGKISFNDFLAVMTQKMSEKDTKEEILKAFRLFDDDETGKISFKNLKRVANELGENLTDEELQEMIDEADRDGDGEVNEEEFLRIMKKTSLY
Chain of UniProt Q9LX31 (whole entry, looked up): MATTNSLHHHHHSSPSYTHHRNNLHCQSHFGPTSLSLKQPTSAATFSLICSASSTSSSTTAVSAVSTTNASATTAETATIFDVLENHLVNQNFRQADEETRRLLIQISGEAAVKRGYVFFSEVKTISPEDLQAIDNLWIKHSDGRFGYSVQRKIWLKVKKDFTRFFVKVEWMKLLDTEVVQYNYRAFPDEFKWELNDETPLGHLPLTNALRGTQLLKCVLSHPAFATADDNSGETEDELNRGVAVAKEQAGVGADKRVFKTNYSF
Chain of UniProt O75173 (whole entry, unmodified, looked up): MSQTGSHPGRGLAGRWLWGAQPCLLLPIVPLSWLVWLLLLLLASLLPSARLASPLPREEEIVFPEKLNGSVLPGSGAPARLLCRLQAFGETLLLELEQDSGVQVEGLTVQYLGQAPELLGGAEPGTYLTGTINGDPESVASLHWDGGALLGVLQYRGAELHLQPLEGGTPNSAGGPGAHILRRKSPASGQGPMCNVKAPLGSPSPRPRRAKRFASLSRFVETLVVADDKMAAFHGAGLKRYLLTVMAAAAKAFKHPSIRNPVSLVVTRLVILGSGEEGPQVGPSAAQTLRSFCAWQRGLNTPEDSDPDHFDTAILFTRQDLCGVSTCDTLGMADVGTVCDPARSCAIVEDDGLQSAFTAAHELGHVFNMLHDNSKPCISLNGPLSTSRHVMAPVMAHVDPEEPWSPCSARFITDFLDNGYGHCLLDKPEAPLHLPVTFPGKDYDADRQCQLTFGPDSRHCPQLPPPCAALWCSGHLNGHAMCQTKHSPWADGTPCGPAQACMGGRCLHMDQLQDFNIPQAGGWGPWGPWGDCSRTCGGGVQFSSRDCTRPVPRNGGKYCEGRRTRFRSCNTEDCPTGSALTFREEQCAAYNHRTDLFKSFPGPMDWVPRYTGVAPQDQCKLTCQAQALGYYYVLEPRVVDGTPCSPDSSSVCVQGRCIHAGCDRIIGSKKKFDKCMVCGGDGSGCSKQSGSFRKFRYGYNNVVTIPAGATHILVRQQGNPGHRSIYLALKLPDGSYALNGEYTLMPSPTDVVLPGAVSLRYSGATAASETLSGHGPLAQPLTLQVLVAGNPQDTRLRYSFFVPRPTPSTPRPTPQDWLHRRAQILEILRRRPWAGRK
Chain of UniProt P63096 (whole entry, unmodified, looked up): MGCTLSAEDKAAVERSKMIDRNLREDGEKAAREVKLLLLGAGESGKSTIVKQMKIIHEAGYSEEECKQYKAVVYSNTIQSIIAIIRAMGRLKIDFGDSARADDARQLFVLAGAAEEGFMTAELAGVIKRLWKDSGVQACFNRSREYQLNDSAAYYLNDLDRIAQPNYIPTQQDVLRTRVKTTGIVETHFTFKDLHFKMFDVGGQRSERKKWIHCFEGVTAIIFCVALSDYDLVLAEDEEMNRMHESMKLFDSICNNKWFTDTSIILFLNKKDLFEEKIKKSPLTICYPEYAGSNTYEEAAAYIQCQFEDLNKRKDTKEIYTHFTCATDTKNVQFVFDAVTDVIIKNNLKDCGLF
Chain of UniProt Q9UNE7 (whole entry, unmodified, looked up): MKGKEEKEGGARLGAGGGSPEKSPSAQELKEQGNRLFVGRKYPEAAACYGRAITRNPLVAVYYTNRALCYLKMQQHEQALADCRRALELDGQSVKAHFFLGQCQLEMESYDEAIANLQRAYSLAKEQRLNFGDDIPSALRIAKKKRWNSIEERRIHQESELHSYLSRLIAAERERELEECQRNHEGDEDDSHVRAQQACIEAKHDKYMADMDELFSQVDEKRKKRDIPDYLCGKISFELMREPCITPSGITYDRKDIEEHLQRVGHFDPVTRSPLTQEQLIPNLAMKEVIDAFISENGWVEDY
Chain of UniProt P46873 (whole entry, looked up): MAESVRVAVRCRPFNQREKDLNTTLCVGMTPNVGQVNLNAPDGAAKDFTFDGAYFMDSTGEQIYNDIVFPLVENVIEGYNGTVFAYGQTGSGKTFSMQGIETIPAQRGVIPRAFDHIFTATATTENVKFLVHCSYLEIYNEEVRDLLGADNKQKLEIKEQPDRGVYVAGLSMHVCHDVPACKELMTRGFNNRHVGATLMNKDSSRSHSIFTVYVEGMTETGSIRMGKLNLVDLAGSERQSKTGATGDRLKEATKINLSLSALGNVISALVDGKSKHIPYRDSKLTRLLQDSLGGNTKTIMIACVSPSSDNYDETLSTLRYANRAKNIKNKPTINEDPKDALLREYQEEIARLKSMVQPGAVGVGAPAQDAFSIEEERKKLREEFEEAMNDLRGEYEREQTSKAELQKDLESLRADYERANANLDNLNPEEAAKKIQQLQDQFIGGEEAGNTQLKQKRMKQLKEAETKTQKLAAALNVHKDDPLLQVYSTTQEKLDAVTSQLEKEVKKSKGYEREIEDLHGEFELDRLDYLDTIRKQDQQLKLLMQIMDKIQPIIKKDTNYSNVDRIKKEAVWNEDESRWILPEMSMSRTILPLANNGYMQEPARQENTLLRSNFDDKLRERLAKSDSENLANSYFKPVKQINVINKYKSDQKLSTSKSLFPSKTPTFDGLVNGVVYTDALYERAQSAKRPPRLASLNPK
Chain of UniProt P05230 (whole entry, looked up): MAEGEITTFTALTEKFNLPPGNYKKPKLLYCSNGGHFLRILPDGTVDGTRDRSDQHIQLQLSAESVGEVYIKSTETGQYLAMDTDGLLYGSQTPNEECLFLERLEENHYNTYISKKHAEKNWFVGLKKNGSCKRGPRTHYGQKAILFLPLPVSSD

Molecule | tested on | test | system | setting | scale | measurement | result
FGF8b (Homo sapiens) | FGFR3 isoform IIIc | cell proliferation, MTT | BaF3-FGFR3c | 20 nM, 48 h, together with: chondroitin sulfate E 4.9 µg/mL | baseline: FGF 1 with heparin, higher = more proliferation | cell proliferation | 47%
YAERPSRDHLYLPLEP (NFATC3 D-site peptide (Homo sapiens)) | Mapk14 D315S/D316E/E317A, pT180, pY182 (Rattus norvegicus, UniProt P70618) | kinase activity, inhibitor, competitive kinase inhibition assay | peptide | together with: ATP 1 mM | – | IC50 | > 100000 nM
cpSRP43 substrate-binding domain (Arabidopsis thaliana) | GUN4 mature (UniProt Q9LX31) | heat-induced aggregation, light scattering | – | – | baseline: cpSRP43-FL, higher = weaker chaperone activity | chaperone activity | > 20 fold lower
fabF R206A (Escherichia coli) | acpP C12-acylated | holo-AcpP formation, HPLC | – | 10 µM, together with: malonyl-CoA | – | condensation rate | 0.41 min⁻¹
POLR2A CTD repeats | Brd4 (Mus musculus, UniProt Q9ESU6) | in vitro kinase assay | – | together with: radiolabeled ATP | – | Km | 0.259 µM
FGF8 (Homo sapiens, UniProt P55075) | FGFR3 isoform IIIc | cell proliferation, MTT | BaF3-FGFR3c | 20 nM, 48 h, together with: completely desulfated heparin 4.9 µg/mL | baseline: FGF 1 with heparin, higher = more proliferation | cell proliferation | 66%
STUB1 (Homo sapiens, UniProt Q9UNE7) | T1, HSP90AA1 723-732 C-terminal peptide E to K, N-terminal 5-carboxyfluorescein (Homo sapiens) | fluorescence polarisation | – | Lys mutant tracer, together with: 5-Fam peptide tracer 20 nM | baseline: wt Hsp90α tracer, higher = weaker binding | affinity change | > 3 fold
YAYPGPARPASLGLGP (CDX1 D-site peptide (Homo sapiens)) | Mapk14, pT180, pY182 (Rattus norvegicus, UniProt P70618) | kinase activity, inhibitor, competitive kinase inhibition assay | peptide | together with: ATP 1 mM | – | IC50 | > 100000 nM
B1 (DLAT 214-416) | T2, PDHA1/PDHB 30-390 E229A on β (Homo sapiens) | SPR | – | – | – | binding | binds
FGF1 (Homo sapiens, UniProt P05230) | FGFR3 isoform IIIc | cell proliferation, MTT | BaF3-FGFR3c | 20 nM, 48 h, together with: unmodified decamer 4.9 µg/mL | baseline: FGF 1 with heparin, higher = more proliferation | cell proliferation | 5%
UGT1A9 (Homo sapiens, UniProt O60656) | COc1cccc2oc(-c3ccccc3)c(O)c(=O)c12 | steady-state kinetics | – | pH 7.4, 37 °C | – | Vmax | 0.0019 µmol/min/mg
dyf-1/osm-5 (Caenorhabditis elegans) | osm-3 (Caenorhabditis elegans, UniProt P46873) | single-molecule transport | – | – | – | velocity | 1.2 µm/s
BCR/ABL1 fusion (Homo sapiens) | Abltide-p40 fusion Abltide at C-terminus | substrate phosphorylation | K-562, lysate | competing substrates | lower = faster | time to half-maximal phosphorylation | < 2 min
B2 (RGS16) | GNAI1 R178M/A326S (Homo sapiens, UniProt P63096) | GTPase rate, Transcreener GDP assay | – | 250 nM | baseline: basal rate, higher = faster hydrolysis | GAP factor | 12 fold
KVAHPIRPKPPSATSIPAILKALQDEWDAVMLHSFTL (PRPF19 56-92 (Homo sapiens)) | PRPF19 (Homo sapiens, UniProt Q9UMS4) | in vitro pre-mRNA splicing, inhibitor | peptide, nuclear extract | – | – | splicing inhibition | 21 nmol
MENVKKATATTTWMVPAAQ (L3MBTL3 52-70 T68A (Homo sapiens, UniProt Q96JM7-2); sequence looked up) | Rbpj 53-474 (Mus musculus, UniProt P31266) | ITC | peptide | pH 6.5, 25 °C, NaCl 150 mM | – | ΔH | -11.7 kcal/mol
B3 (mel-26) | mei-1 S137A, phosphorylated by MBK-2 (Caenorhabditis elegans, UniProt P34808) | far-Western | – | 4 °C, denatured | – | binding | binds
AMA C-terminal 7 residues (Methanosarcina mazei) | 20S proteasome core particle (Methanosarcina mazei, UniProt Q8PTU1) | LFP hydrolysis, activator | – | 0.6 nM CP, 37 °C | baseline: MmCP alone, higher = more hydrolysis | peptide hydrolysis | 9 fold
RLN2 mature | RXFP1 (Homo sapiens, UniProt Q9HBX9) | cAMP, agonist, cAMP reporter gene assay | HEK293T | – | – | pEC50 | 10.8
Ac-NWKLLAKGLLIRERLKR-NH2 (XPC 847-863 (Homo sapiens); N-acetyl; C-terminal amide) | CETN1, phosphothreonine (Homo sapiens, UniProt Q12798) | ITC | peptide | – | – | molecule per partner | 0.61
B4 (TIMP3 24-144) | ADAMTS4 213-519 (Homo sapiens, UniProt O75173) | inhibitor, steady-state kinetics | – | 1 h, 37 °C, apparent | – | Ki | 0.55 nM
MMP2 fragment (Homo sapiens) | COL1A1/COL1A2 denatured, gelatin (Homo sapiens) | DQ-gelatin fluorescence | – | 10 nM, 25 °C | higher = faster hydrolysis | hydrolysis rate | 0.306 RFU/s
fabF K65A/K69A (Escherichia coli) | acpP C12-acylated | holo-AcpP formation, HPLC | – | 10 µM, together with: malonyl-CoA | – | condensation rate | 0.59 min⁻¹
TIMP2 N-terminal domain S4E/V6R/V18M/I35V/N38Q/S68N/V71N/H97R | MMP2 (Homo sapiens, UniProt P08253) | fluorogenic substrate cleavage, inhibitor, enzyme inhibition assay | – | apparent | – | Ki | 224 nM

Some of these lines once more:
Molecule | tested on | test | system | setting | scale | measurement | result
B1 (DLAT 214-416) | T2, PDHA1/PDHB 30-390 E229A on β (Homo sapiens) | SPR | – | – | – | binding | binds
FGF1 (Homo sapiens, UniProt P05230) | FGFR3 isoform IIIc | cell proliferation, MTT | BaF3-FGFR3c | 20 nM, 48 h, together with: unmodified decamer 4.9 µg/mL | baseline: FGF 1 with heparin, higher = more proliferation | cell proliferation | 5%
UGT1A9 (Homo sapiens, UniProt O60656) | COc1cccc2oc(-c3ccccc3)c(O)c(=O)c12 | steady-state kinetics | – | pH 7.4, 37 °C | – | Vmax | 0.0019 µmol/min/mg
dyf-1/osm-5 (Caenorhabditis elegans) | osm-3 (Caenorhabditis elegans, UniProt P46873) | single-molecule transport | – | – | – | velocity | 1.2 µm/s
